# Measured values collected from several papers.
# Each numbered part is a random draw from the data of one study; scales do not carry over between parts.
# Chain of UniProt O60674 (whole entry, looked up): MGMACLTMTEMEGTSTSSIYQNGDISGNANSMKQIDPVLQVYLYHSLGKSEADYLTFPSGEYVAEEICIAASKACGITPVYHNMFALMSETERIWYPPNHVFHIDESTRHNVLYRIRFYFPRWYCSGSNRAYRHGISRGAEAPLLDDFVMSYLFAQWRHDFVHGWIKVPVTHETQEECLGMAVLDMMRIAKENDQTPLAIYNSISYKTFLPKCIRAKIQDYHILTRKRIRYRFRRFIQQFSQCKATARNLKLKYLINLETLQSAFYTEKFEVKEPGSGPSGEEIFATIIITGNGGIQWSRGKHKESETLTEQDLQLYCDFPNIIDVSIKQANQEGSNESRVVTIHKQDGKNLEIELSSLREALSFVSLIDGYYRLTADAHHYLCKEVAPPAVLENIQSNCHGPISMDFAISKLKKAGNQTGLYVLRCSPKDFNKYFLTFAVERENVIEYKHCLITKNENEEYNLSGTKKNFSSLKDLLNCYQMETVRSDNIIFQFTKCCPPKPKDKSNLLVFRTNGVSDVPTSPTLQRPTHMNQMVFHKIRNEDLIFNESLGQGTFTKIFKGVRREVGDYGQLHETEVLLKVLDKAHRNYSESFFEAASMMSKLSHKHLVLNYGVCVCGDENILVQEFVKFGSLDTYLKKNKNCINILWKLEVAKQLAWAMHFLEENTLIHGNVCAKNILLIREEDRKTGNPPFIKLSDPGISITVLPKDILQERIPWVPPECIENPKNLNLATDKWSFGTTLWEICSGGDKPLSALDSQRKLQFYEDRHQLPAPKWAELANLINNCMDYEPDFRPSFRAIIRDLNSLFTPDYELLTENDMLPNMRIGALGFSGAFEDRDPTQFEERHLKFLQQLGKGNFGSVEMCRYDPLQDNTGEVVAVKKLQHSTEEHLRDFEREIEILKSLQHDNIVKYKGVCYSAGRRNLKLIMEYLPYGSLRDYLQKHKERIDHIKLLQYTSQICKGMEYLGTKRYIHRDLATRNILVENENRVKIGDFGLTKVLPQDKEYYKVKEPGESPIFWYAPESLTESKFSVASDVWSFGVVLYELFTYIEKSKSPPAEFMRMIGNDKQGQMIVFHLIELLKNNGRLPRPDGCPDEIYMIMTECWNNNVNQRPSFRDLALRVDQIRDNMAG
# Chain of UniProt P50750 (whole entry, looked up): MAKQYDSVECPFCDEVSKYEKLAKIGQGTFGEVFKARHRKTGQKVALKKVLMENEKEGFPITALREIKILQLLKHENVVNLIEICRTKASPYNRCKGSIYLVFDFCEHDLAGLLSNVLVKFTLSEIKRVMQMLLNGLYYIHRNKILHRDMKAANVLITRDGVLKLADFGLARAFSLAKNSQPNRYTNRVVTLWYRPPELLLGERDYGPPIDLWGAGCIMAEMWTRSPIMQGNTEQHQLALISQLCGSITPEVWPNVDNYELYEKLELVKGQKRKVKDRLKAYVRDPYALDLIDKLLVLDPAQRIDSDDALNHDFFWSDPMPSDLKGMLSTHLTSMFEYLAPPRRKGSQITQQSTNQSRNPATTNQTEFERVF
# Chain of UniProt O14578 (whole entry, looked up): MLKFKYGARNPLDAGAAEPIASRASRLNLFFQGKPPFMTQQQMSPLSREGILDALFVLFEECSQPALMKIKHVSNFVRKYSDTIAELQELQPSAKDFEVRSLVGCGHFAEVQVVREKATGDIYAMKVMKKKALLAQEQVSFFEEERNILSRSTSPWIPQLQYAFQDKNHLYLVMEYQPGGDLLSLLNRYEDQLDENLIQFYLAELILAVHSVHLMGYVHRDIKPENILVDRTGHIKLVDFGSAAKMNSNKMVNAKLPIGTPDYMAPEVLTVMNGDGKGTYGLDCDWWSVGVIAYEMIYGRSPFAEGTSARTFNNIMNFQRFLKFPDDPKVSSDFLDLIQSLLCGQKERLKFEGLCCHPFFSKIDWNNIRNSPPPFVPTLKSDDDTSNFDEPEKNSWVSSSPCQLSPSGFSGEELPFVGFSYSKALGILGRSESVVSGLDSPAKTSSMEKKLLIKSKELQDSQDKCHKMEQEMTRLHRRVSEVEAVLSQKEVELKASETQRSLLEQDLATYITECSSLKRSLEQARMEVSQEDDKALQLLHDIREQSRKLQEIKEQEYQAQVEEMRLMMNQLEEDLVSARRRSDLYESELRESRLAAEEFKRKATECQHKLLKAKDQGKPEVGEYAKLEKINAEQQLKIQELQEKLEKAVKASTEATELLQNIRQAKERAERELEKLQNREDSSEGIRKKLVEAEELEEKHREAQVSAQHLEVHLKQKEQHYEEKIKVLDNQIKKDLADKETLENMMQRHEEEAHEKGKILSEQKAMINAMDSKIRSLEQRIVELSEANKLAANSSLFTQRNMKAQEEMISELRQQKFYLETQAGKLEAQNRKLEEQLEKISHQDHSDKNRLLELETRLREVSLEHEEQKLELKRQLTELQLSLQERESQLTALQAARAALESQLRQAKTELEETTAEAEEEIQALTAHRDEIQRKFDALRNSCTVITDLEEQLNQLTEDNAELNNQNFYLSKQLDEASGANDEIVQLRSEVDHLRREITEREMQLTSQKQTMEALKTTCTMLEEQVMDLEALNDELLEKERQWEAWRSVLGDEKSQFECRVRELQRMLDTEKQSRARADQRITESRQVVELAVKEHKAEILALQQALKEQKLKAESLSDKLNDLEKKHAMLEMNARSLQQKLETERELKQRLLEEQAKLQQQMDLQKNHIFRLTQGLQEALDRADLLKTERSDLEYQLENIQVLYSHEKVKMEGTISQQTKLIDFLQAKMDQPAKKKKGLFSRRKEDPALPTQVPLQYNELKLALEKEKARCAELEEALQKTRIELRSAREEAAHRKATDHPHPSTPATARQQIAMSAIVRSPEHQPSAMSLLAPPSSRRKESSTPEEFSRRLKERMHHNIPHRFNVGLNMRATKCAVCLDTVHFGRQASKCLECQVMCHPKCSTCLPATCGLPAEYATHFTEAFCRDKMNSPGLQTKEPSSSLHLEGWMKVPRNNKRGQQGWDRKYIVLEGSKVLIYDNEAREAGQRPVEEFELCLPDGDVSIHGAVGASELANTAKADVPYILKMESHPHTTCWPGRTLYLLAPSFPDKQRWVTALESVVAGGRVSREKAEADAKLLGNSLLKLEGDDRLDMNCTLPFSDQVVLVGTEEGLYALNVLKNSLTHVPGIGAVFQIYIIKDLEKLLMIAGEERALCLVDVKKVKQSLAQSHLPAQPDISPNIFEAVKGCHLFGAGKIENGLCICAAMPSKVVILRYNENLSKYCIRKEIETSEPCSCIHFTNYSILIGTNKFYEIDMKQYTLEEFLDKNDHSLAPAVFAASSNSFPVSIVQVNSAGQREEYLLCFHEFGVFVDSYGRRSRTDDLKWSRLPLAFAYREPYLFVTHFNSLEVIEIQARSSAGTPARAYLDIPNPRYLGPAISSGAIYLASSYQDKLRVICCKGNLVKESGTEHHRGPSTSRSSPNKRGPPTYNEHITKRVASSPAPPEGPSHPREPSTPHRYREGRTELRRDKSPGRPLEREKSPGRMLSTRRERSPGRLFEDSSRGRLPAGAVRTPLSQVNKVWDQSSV

# Sample 1
# Target: Calcium/calmodulin-dependent protein kinase type II subunit alpha (CAMK2A, Homo sapiens, UniProt Q9UQM7)
# Chain of UniProt Q9UQM7 (whole entry, looked up): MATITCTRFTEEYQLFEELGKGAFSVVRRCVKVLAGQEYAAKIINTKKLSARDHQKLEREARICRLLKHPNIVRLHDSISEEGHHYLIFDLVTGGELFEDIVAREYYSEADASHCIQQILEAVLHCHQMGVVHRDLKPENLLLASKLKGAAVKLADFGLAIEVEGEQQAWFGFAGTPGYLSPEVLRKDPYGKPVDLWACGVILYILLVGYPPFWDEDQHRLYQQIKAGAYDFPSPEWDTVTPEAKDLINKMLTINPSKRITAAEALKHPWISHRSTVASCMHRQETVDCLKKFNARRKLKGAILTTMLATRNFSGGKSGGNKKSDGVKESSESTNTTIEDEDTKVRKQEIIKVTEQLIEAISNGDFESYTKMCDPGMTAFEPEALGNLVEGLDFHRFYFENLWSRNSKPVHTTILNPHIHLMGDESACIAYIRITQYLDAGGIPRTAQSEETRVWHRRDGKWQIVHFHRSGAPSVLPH
# Read-out: enzyme activity
# Mode: inhibitor
# Tested at: 10 µM
Compound,inhibition [%]
COC(=O)/C=C/C(=O)OCCN1C(=O)CCC1=O,-8
C[C@]12CCC(=O)C[C@H]1CC[C@@H]1[C@@H]2[C@@H](O)C[C@@]2(C)[C@H]1CC[C@]2(O)C(=O)CO,-7
NCCCCCC(O)(P(=O)(O)O)P(=O)(O)O,1
CCCCCCCCCCCCCCCCC(=O)O,-34
C=C(C)[C@@H]1CCC2=CC(=O)C[C@@H](C)[C@]2(C)C1,-12
Cc1oc(=O)oc1COC(=O)C1=C([C@H]2CCCO2)S[C@@H]2[C@@H]([C@@H](C)O)C(=O)N12,-12

# Sample 2
# Target: Serine/threonine-protein kinase MARK1 (MARK1, Homo sapiens, UniProt Q9P0L2)
# Chain of UniProt Q9P0L2 (whole entry, looked up): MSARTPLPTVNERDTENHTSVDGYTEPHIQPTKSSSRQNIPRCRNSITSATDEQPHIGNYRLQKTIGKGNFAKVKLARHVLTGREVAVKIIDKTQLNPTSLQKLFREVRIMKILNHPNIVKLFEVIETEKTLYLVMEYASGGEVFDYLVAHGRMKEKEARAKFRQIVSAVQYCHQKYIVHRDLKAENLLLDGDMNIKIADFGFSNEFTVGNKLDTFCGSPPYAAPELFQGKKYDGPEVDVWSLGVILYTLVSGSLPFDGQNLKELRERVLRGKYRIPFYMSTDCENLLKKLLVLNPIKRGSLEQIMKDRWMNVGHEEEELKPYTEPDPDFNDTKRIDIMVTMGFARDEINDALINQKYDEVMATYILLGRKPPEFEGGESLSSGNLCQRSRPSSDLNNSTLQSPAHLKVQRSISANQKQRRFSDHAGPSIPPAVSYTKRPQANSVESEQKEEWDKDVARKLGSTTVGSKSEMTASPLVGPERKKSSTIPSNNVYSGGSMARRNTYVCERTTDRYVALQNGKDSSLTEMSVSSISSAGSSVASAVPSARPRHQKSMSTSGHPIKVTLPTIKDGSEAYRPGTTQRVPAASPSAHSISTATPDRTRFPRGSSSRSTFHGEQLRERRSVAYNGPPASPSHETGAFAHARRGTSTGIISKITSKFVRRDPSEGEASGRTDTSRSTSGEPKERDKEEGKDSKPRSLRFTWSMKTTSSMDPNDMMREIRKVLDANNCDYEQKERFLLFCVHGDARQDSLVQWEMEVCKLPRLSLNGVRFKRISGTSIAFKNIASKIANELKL
# Read-out: enzyme activity
# Mode: inhibitor
# Tested at: 0.5 µM
# Baseline: control
SMILES,remaining activity [%]
O=C1Nc2ccccc2/C1=C\c1c(Cl)[nH]c2ccccc12,96
O=c1cc(N2CCOCC2)oc2c(-c3ccccc3)cccc12,100
COc1ccc(COc2ccc(Cc3cnc(N)nc3N)cc2OC)cc1,103
O=C1NC(=O)c2c1c1c3ccccc3[nH]c1n1cncc21,36.7
c1ccc2c(-c3ccncc3)c[nH]c2c1,94.5
COc1cccc(-c2cc(=O)c3ccccc3o2)c1N,96.9
O=C(c1cc2cc(O)ccc2[nH]1)c1cc2cc(O)ccc2[nH]1,66.3
Cc1ccc(S(=O)(=O)/C=C/C#N)cc1,102
CN1CCN(c2ccc3nc(-c4c(N)c5c(F)cccc5[nH]c4=O)[nH]c3c2)CC1,34.8
c1ccc(-c2n[nH]c3c2oc2ccccc23)cc1,98.6
Oc1cccc(-c2nc(N3CCOCC3)c3oc4ncccc4c3n2)c1,97.6

# Sample 3
# Compound: CNCc1ccccc1-c1csc([C@@H](C)Nc2nc(C)nc3cc(OC)c(OC)cc23)c1
# Read-out: cell-free assay
# Method: competition with immobilised ligand
# Tested at: 1 µM
target,remaining binding [%]
"Tyrosine-protein kinase ABL1, phosphorylated (ABL1, Homo sapiens, UniProt P00519)",97
"MAP4K4 (Homo sapiens, UniProt O95819)",100
"STK3 (Homo sapiens, UniProt Q13188)",85
"CAMK1 (Homo sapiens, UniProt Q14012)",100
"MAPK6 (Homo sapiens, UniProt Q16659)",100
"LYN (Homo sapiens, UniProt P07948)",100
"LRRK2 (Homo sapiens, UniProt Q5S007)",100
"RAF1 (Homo sapiens, UniProt P04049)",70
"STK4 (Homo sapiens, UniProt Q13043)",100
"Tyrosine-protein kinase JAK2, JH1 (JAK2, Homo sapiens, UniProt O60674)",67
"CDK9 (Homo sapiens, UniProt P50750)",100
"LTK (Homo sapiens, UniProt P29376)",97
"CIT (Homo sapiens, UniProt O14578)",92
"EPHA2 (Homo sapiens, UniProt P29317)",76
"FYN (Homo sapiens, UniProt P06241)",100
"NTRK1 (Homo sapiens, UniProt P04629)",87
"Cyclin-dependent kinase 4, with cyclin D1 (CDK4, Homo sapiens, UniProt P11802)",88

# Single results of other studies
Compound,target,method,setting,endpoint,value
Cc1ccc2c(c1)sc(-c1ccc(N(C)C)cc1)[n+]2C,"G-quadruplex RNA, G-quadruplex (Homo sapiens)",fluorescence turn-on,KCl 150 mM,binding,binds
